Published values from different studies.
A part holds a random share of what one study measured.
Chain of UniProt Q92630 (whole entry, looked up): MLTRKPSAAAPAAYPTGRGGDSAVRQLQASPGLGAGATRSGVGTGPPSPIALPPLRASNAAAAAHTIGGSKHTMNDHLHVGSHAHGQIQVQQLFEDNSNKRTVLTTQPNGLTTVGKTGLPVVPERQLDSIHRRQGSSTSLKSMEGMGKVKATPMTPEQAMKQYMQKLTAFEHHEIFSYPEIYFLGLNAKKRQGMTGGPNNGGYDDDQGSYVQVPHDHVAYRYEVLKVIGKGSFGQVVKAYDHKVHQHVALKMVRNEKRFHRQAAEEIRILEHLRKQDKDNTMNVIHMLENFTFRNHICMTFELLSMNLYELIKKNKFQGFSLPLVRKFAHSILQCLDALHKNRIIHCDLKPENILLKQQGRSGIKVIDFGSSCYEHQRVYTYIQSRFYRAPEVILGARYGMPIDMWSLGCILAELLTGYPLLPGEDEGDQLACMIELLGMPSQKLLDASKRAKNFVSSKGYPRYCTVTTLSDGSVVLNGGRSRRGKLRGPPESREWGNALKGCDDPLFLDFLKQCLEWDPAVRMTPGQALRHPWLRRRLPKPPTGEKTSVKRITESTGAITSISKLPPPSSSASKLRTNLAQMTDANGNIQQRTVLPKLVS
Chain of UniProt Q9Y2I7 (whole entry, looked up): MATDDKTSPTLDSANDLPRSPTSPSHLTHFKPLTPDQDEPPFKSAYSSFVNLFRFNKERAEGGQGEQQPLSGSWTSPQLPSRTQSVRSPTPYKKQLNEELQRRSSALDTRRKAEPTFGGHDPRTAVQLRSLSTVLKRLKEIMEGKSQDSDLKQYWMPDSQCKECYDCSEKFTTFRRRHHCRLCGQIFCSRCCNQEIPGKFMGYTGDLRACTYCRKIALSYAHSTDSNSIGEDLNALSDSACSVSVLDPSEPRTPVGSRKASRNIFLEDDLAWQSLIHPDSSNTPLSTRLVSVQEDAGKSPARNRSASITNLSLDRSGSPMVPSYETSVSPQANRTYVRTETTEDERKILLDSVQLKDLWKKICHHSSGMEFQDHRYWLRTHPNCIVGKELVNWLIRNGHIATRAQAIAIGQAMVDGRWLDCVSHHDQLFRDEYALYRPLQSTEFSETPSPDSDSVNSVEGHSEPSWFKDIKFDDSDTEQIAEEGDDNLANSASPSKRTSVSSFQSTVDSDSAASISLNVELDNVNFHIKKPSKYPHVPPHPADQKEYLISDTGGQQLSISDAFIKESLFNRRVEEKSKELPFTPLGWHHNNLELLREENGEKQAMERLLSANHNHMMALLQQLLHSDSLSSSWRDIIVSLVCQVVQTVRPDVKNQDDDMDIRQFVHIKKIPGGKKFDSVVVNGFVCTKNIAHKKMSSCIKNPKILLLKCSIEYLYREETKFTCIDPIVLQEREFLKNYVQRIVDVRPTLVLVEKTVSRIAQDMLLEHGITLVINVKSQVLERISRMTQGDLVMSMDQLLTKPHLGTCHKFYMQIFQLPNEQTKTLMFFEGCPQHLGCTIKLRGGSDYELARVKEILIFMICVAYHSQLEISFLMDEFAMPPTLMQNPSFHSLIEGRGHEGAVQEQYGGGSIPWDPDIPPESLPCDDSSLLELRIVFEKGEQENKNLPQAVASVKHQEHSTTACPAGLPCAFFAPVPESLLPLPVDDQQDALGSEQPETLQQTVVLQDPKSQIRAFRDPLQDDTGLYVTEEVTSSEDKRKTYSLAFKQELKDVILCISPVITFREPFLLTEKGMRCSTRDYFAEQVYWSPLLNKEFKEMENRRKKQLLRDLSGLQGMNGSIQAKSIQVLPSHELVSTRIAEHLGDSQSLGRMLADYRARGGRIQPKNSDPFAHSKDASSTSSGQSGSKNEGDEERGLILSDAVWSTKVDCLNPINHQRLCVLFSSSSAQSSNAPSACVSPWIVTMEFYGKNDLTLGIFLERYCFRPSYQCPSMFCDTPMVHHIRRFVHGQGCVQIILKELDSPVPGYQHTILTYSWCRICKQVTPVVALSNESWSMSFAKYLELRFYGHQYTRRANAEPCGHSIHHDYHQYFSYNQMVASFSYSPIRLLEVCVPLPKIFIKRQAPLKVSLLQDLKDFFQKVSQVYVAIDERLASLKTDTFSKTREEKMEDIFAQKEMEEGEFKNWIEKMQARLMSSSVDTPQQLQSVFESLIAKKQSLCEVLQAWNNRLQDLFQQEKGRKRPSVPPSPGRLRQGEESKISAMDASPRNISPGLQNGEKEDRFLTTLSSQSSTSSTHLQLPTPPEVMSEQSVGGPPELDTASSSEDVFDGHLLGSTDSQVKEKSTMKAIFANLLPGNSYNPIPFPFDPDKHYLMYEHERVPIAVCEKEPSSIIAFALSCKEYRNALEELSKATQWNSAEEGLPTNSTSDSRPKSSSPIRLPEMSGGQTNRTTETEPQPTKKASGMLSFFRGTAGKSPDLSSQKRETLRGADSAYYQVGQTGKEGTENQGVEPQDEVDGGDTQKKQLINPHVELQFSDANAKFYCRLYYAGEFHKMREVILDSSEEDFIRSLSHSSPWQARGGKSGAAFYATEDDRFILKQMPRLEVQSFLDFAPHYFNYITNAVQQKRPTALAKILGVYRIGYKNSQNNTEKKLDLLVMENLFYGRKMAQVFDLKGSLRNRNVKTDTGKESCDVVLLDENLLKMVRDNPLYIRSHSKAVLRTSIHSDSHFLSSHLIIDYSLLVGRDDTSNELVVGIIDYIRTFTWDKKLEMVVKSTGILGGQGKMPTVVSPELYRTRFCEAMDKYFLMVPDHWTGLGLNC
Chain of UniProt P04629 (whole entry, looked up): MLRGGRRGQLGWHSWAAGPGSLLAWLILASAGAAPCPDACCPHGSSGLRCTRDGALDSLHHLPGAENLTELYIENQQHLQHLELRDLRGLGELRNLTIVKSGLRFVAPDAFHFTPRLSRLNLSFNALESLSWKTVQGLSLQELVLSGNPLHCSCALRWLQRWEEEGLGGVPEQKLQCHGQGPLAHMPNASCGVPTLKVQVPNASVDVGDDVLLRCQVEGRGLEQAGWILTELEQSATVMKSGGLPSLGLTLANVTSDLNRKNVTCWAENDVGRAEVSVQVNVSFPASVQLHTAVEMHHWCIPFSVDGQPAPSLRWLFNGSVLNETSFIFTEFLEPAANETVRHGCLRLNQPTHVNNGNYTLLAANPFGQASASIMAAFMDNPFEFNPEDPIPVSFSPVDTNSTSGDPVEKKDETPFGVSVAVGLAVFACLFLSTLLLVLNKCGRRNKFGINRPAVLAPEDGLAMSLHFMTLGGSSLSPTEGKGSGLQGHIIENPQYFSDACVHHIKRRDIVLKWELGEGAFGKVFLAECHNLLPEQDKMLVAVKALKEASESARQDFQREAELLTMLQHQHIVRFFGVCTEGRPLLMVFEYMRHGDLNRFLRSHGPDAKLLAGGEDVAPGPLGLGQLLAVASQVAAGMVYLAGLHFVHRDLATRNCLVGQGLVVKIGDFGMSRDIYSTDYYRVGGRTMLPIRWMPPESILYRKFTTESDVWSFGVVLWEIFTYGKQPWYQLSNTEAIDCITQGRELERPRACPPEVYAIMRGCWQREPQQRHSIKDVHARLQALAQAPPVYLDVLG

Study 1
SMILES: N#Cc1c(Oc2ccc(F)c(NC(=O)Cc3cccc(C(F)(F)F)c3)c2)ccc2nc(NC(=O)C3CC3)sc12
Target: Receptor-interacting serine/threonine-protein kinase 3 (RIPK3, Homo sapiens, UniProt Q9Y572)
Chain of UniProt Q9Y572 (whole entry, looked up): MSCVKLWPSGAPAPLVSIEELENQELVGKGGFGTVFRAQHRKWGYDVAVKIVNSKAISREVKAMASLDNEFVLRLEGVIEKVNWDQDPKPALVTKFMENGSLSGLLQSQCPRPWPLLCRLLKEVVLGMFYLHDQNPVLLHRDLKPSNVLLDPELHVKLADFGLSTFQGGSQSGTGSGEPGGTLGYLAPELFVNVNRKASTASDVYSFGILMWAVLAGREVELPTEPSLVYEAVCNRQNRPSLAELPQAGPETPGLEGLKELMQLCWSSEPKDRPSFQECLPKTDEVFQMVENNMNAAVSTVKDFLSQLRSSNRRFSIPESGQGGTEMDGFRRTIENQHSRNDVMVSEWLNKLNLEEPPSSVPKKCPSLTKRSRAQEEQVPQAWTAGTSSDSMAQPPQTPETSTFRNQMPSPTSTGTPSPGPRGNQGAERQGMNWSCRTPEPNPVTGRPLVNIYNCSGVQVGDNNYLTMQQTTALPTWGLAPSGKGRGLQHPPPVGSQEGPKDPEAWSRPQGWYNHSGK
Mode: inhibitor
Time: 1 h
test	setting	inhibition [%]
kinase activity, ADP-Glo	31.25 nM	55.4
kinase activity, ADP-Glo	500 nM	92.5
kinase activity, ADP-Glo	62.5 nM	66.8
kinase activity, ADP-Glo	15.62 nM	33.2
enzyme activity, ADP detection	1 µM	96.6

Study 2
Structure (SMILES): C=CCc1ccc(O)c(-c2ccc(O)c(CC=C)c2)c1
ANO1 del476-501/F628A: Anoctamin-1 (ANO1, Homo sapiens, UniProt Q5XXA6, del476-501/F628A)
Chain of UniProt Q5XXA6 (whole entry, unmodified, looked up): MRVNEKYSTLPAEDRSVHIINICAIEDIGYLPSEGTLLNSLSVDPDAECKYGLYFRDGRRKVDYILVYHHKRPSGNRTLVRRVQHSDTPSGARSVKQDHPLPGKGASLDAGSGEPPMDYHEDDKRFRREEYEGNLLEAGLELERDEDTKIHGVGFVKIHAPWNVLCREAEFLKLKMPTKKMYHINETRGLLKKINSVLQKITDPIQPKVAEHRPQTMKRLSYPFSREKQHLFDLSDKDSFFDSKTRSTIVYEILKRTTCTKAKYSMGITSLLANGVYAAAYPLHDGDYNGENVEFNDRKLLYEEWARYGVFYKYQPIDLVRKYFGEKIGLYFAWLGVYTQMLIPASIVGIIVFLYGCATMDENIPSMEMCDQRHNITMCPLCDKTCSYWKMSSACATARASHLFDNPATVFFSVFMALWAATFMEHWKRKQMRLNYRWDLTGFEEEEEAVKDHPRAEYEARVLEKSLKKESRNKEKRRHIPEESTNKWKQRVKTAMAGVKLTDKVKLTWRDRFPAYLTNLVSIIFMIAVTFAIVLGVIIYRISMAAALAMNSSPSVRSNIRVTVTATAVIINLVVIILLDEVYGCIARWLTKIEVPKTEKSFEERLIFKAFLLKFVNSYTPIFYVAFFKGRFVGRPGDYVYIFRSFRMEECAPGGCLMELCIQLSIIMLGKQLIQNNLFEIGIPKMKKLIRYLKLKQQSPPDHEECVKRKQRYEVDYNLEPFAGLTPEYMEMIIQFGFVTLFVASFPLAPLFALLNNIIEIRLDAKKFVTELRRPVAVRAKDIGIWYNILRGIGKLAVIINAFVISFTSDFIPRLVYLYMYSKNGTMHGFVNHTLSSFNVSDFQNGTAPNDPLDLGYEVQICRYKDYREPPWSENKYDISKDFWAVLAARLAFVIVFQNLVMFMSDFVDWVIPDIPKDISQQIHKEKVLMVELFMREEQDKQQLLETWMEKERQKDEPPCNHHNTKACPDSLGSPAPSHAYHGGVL
ANO1 del476-501: Anoctamin-1 (ANO1, Homo sapiens, UniProt Q5XXA6, del476-501)
target	test	setting	normalized current
Anoctamin-1 (ANO1, Homo sapiens, UniProt Q5XXA6, del476-501/E649A)	ion current, inside-out patch clamp	10 µM, E623A mutant at 40 mV	0.297
ANO1 del476-501/F628A	chloride current, whole-cell voltage clamp	1 µM, concentration-response at 100 mV, with: 4 µM Ca2+	0.918
ANO1 del476-501	chloride current, whole-cell voltage clamp	1 µM, wild type, I-V at 40 mV, with: 4 µM Ca2+	0.376
Anoctamin-1 (ANO1, Homo sapiens, UniProt Q5XXA6, del476-501/E659A)	chloride current, inside-out patch clamp	10 µM, membrane voltage 100 mV	0.814
TMEM16A (human) K603A/E623A	chloride current, inside-out patch clamp	10 µM, membrane voltage 40 mV	0.23
ANO1 del476-501	chloride current, whole-cell voltage clamp	3 µM, wild type, concentration-response at 20 mV, with: 4 µM Ca2+	0.144
ANO1 del476-501	chloride current, whole-cell voltage clamp	concentration not given, with: 300 nM Ca2+	0.414
ANO1 del476-501	chloride current, whole-cell voltage clamp	30 µM, wild type, I-V at 60 mV, with: 4 µM Ca2+	0.0389
ANO1 del476-501/F628A	chloride current, whole-cell voltage clamp	100 µM, I-V at -100 mV, with: 4 µM Ca2+	-0.272
ANO1 del476-501/F628A	chloride current, whole-cell voltage clamp	100 µM, concentration-response at -20 mV, with: 4 µM Ca2+	-0.0307
ANO1 del476-501/F628A	chloride current, whole-cell voltage clamp	10 µM, I-V at -60 mV, with: 4 µM Ca2+	-0.366
ANO1 del476-501/F628A	chloride current, whole-cell voltage clamp	30 µM, concentration-response at -40 mV, with: 4 µM Ca2+	-0.189

Study 3
Structure (SMILES): O=C(Nc1cnn(-c2csc(C(=O)NC3COC3)c2)c1)Nc1c(F)cccc1Cl
Observed: enzyme activity
Tested at: 5 µM
target	test	scale	remaining activity
PTK2 (Homo sapiens, UniProt Q05397)		baseline: untreated control	87.5%
BMPR1A (Homo sapiens, UniProt P36894)		baseline: untreated control	100%
PLK4 (Homo sapiens, UniProt O00444)	inhibitor		84.3%
HIPK1 (Homo sapiens, UniProt Q86Z02)		baseline: untreated control	91.3%
Protein kinase C beta type, isoform beta-I (PRKCB, Homo sapiens, UniProt P05771)		baseline: untreated control	98.7%
BMPR2 (Homo sapiens, UniProt Q13873)		baseline: untreated control	74.9%
TNK1 (Homo sapiens, UniProt Q13470)	inhibitor		91.5%
NTRK1 (Homo sapiens, UniProt P04629)		baseline: untreated control	87.5%
ACVR1B (Homo sapiens, UniProt P36896)		baseline: untreated control	80.1%
ROS1 (Homo sapiens, UniProt P08922)		baseline: untreated control	85%
Cyclin-dependent kinase 4, with cyclin D1 (CDK4, Homo sapiens, UniProt P11802)		baseline: untreated control	90.2%

Study 4
SMILES: O=C(NCc1ncc(C(F)(F)F)cc1Cl)c1ccc2c(c1)C1(CCS(=O)(=O)CC1)[C@@H](C1CC1)N2S(=O)(=O)c1ccc(F)cc1
Observed: cell-free assay
Method: competition with immobilised ligand
Tested at: 1 µM
target	remaining binding [%]
KIT (Homo sapiens, UniProt P10721, V559D)	85
DYRK2 (Homo sapiens, UniProt Q92630)	90
CDK17 (Homo sapiens, UniProt Q00537)	99
CSNK2A2 (Homo sapiens, UniProt P19784)	72
IRAK1 (Homo sapiens, UniProt P51617)	77
PLK3 (Homo sapiens, UniProt Q9H4B4)	82
PRKD1 (Homo sapiens, UniProt Q15139)	76
NUAK2 (Homo sapiens, UniProt Q9H093)	75
NIM1K (Homo sapiens, UniProt Q8IY84)	78
PIK3CA (Homo sapiens, UniProt P42336, M1043I)	56
PTK2B (Homo sapiens, UniProt Q14289)	100
STK39 (Homo sapiens, UniProt Q9UEW8)	77
MAP3K4 (Homo sapiens, UniProt Q9Y6R4)	84
ULK2 (Homo sapiens, UniProt Q8IYT8)	54
EGFR (Homo sapiens, UniProt P00533, G719C)	90
MAPK11 (Homo sapiens, UniProt Q15759)	100
PIM2 (Homo sapiens, UniProt Q9P1W9)	92
PIKFYVE (Homo sapiens, UniProt Q9Y2I7)	73
MAP3K20 (Homo sapiens, UniProt Q9NYL2)	92
DAPK3 (Homo sapiens, UniProt O43293)	89
